Assay results gathered from unrelated publications.
A part holds a random share of what one study measured. Changes are numbered by the printed parent chain.

Study 1 — target: CCNA2, cyclin fold, Cln2 fusion (human); method: yeast growth competition, sequencing; sample: yeast; setting: strong parent motif; baseline: not given; direction: higher = stronger binding; starting sequence: viral docking peptide; TSVRRALFTGGSD
`R5K`: “normalised enrichment score” 5.95.
For `D13A`, “normalised enrichment score” read 6.15.
`R5E`: “normalised enrichment score” -0.195.
`A6Y` — result for “normalised enrichment score”: 0.931.
Under “normalised enrichment score”, `G11D` is recorded as 5.92.
Under “normalised enrichment score”, `A6F` is recorded as 1.55.
For `R5C`, “normalised enrichment score” read 2.36.
`F8A`: “normalised enrichment score” 0.603.
For `G10E`, “normalised enrichment score” read 6.51.
Under “normalised enrichment score”, `R4Q` is recorded as 2.61.
`L7M` — result for “normalised enrichment score”: 1.21.
For `F8S`, “normalised enrichment score” read 0.362.
For `F8W`, “normalised enrichment score” read 4.28.
For `G10V`, “normalised enrichment score” read 5.92.
`R5I` — result for “normalised enrichment score”: 2.38.
Under “normalised enrichment score”, `G10H` is recorded as 5.98.
Under “normalised enrichment score”, `R5W` is recorded as 0.892.
`S2A`: “normalised enrichment score” 5.73.

Study 2 — observed: binding; method: phage display NGS; molecule type: peptide; tested at: concentration not given; baseline: input library
Target: UDP-N-acetylglucosamine--peptide N-acetylglucosaminyltransferase 110 kDa subunit (OGT, Homo sapiens, UniProt O15294)
Chain of UniProt O15294 (whole entry, looked up): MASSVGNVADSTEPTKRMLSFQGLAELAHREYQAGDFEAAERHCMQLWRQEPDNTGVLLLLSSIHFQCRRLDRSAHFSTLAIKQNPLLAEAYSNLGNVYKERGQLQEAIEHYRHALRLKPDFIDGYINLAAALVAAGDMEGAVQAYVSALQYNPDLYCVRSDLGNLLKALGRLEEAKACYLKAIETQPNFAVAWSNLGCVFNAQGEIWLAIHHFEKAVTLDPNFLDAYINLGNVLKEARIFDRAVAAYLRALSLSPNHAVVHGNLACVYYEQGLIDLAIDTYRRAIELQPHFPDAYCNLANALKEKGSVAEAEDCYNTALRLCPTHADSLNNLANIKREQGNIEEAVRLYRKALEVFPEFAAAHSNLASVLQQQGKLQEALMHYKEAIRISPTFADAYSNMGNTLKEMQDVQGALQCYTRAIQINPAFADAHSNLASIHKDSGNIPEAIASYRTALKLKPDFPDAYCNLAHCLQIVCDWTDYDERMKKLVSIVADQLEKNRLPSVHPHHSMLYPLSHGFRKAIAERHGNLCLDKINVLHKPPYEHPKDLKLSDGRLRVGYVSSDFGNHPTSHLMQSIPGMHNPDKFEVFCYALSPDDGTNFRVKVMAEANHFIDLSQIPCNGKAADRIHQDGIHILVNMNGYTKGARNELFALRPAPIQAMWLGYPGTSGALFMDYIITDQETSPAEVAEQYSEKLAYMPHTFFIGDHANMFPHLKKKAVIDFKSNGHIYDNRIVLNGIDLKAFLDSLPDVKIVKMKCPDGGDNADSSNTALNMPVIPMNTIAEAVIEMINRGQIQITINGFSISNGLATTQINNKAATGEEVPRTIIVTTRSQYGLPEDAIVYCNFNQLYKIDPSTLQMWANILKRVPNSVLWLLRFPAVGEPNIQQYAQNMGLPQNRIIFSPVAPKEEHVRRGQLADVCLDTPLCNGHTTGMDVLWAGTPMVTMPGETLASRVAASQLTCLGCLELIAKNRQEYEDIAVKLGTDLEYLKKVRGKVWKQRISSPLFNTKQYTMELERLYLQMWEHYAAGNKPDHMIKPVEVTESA
`HGRDTYMEKGHYHF` — result for “enrichment fold change”: 3.81.
`RMTPQFRPFYQIIMR`: “enrichment fold change” 5.56.
`QHITHYHFTHQFDTH`: “enrichment fold change” 3.55.
`QIHQMRHHAPHTRVP`: “enrichment fold change” 4.06.

Study 3 — target: CEBPB, bZIP domain (human); method: DHFR protein complementation; sample: yeast; baseline: wild-type JUN-FOS pair; direction: higher = stronger binding
Setting: single substitutions, most at no-binding floor
Starting sequence: JUN, bZIP domain (human); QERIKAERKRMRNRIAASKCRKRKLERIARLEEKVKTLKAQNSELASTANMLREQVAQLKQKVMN; partner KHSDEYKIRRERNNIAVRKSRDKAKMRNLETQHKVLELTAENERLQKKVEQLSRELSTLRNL
The binding fitness of `T48A` is reported as -1.37 natural log.
`L45E` gave a binding fitness of -1.52 natural log.
`A49Y` gave a binding fitness of -1.19 natural log.
The binding fitness of `S47K` is reported as -1.06 natural log.
`N42A` gave a binding fitness of -1.5 natural log.
For `R30C`, the binding fitness was -1.34 natural log.
The binding fitness of `A49L` is reported as -1.34 natural log.
`A46L` gave a binding fitness of -1.25 natural log.

Study 4 — method: protein-binding microarray; molecule type: double-stranded DNA, one strand shown; sample: in vitro; tested at: 250 nM; setting: 60-bp whole probe; with: salmon DNA 0.4 mg/ml; baseline: random background probes; direction: higher = stronger binding; constant ends, left off below: GCCTAGCAC … GTCTTGATTCGCTTGACGCTGCTG
Target: Interferon regulatory factor 5, full length, phosphomimetic (IRF5, Homo sapiens, UniProt Q13568-2, residues 1-514, K96S/S451D/S453D/S456D/S462D)
`TTAGATTCCAGTTGCGATTAGTGCTAG` has a log fluorescence of 1.62 z-score.
`GACGGTTTTGGTCTCGGGACGTGCTAG` gave a log fluorescence of 1.29 z-score.
For `GACGGACTGCTTTGCCTGACGTGCTAG`, the log fluorescence was -0.694 z-score.
With `AGAAACTTGTATTTGTCCCTGTGCTAG` the log fluorescence was 1.93 z-score.
`GACGGTATCGAGTTTCGGGACGTGCTA` gave a log fluorescence of 5.82 z-score.
With `TTAGTTTCCGGTTTCGGTTAGTGCTAG` the log fluorescence was 9.75 z-score.
With `TTAGATATCAGTATCGGTTAGTGCTAG` the log fluorescence was 8.11 z-score.
`TTAGATATCGGGACTGGAATAGTGCTA` gave a log fluorescence of 1.23 z-score.

Single results of other studies
For `CNC(=O)c1ccc(-c2cnn3ccc(C(=O)N(C)c4ccc(Cl)c(C(=O)OC)c4)cc23)cc1`, the IC50 was > 30 µM (Epidermal growth factor receptor (EGFR, Homo sapiens, UniProt P00533); enzyme activity, inhibitor).

Excerpt of the above (study 4):
With `AGAAACTTGTATTTGTCCCTGTGCTAG` the log fluorescence was 1.93 z-score.
`GACGGTATCGAGTTTCGGGACGTGCTA` gave a log fluorescence of 5.82 z-score.
With `TTAGTTTCCGGTTTCGGTTAGTGCTAG` the log fluorescence was 9.75 z-score.
